Published values collected from several papers.
Every numbered part comes from another study and shows a few of its results, in no order.

Block 1
Target: Interferon regulatory factor 5, full length, phosphomimetic (IRF5, Homo sapiens, UniProt Q13568-2, residues 1-514, K96S/S451D/S453D/S456D/S462D)
Technique: protein-binding microarray
Molecule type: double-stranded DNA, one strand shown
Sample: in vitro
Tested at: 250 nM
Setting: 60-bp whole probe
Together with: salmon DNA 0.4 mg/ml
Relative to: random background probes
Direction: higher = stronger binding
Measurement: log fluorescence
All sequences stand within: GCCTAGCAC … GTCTTGATTCGCTTGACGCTGCTG
TTAGGTCTCAGTTTCGGTTAGTGCTAG: 9.42 z-score
GACGGTTTCCATCTCCTGACGTGCTAG: 0.86 z-score
TCAAAAATGAATATTAGACTGTGCTAG: 0.209 z-score
GACGGTATCGGTTTCGGGATGTGCTAG: 8.87 z-score
GACGGTTCCGGTTTCCGGACGTGCTAG: 1.19 z-score
TTAGATTTCGGGACTGGATTCGTGCTA: 2.61 z-score
TTAGGGTTCGGTCTCGGTTAGTGCTAG: 0.703 z-score
TTAGGTATCGATTTTCGGTTAGTGCTA: 8.82 z-score
TTTGGTTTCGGGACTGGGTTAGTGCTA: 8.04 z-score
TTTCCCATGAGTCTCAATATGTGCTAG: 1.83 z-score
TTAGAACTGGGGACTGGATTGGTGCTA: -0.174 z-score
GACGGTAACGGGTTTCGGGACGTGCTA: 2.07 z-score
TTAGGTATCGACTATCGGTTCGTGCTA: 7.3 z-score
GACCATCTCATATAAATAGGCGTGCTA: 0.106 z-score
GTCGGTATCCTTTTCCTGACGTGCTAG: 0.726 z-score
TCAGAGCTCTGTCTGGGACTGTGCTAG: -0.388 z-score
TTAGGACTGAGGTATCGGTTAGTGCTA: 2.5 z-score
GACGAAGTGAGTTTCGAGACGTGCTAG: 4.79 z-score

Block 2
Target: Phosphate system positive regulatory protein PHO4, full length, GST-tagged (PHO4, Saccharomyces cerevisiae, UniProt P07270, residues 1-312)
Technique: competition protein-binding microarray
Molecule type: double-stranded DNA, one strand shown
Sample: in vitro
Tested at: 2 µM
Setting: whole 60-bp probe, lowest competitor level
Together with: Cbf1 competitor, 0.05 µM
Direction: higher = stronger binding
Measurement: fluorescence intensity
Construct (chain): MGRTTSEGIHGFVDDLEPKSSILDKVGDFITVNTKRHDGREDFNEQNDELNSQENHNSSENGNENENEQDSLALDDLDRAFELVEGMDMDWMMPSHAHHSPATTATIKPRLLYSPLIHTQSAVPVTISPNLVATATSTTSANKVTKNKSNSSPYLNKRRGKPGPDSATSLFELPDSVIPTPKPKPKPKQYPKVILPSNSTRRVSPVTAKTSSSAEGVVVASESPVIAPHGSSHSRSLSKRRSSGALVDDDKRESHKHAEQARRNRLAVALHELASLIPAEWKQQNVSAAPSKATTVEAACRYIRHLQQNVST
TCCTGGGCGGCTTAAAACGTGAGGAAAATTGTACTGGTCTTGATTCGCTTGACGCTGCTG: 10000 a.u.
TGCTTCTTTGAAAAGCACATGCCGTTTCACCACAGGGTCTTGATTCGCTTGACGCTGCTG: 10500 a.u.
CACCGTCTTCCGCCGCACGTGGATTCAGCGCGATGCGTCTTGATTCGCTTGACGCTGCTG: 18900 a.u.
TGCGCAACAACTTGTCAGGTGGGTGTATGTCTAGAAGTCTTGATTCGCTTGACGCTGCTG: 6280 a.u.
GGATCTTTGAAAGCAGCCGTGCCGATATACACAGTAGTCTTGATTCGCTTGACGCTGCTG: 4820 a.u.
CTTATATCCTGGCTCAACGTGAAGAGATTCTAGATCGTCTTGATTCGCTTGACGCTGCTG: 8410 a.u.
AAATTACTAAGTTGTCACACTACTTACCCCGTATGAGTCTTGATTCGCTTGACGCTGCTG: 3630 a.u.
TGCGCAACAACTTGCACAGTGGGTGTATGTCTAGAAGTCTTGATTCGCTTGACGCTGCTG: 4500 a.u.
CACGATAATTTATACGTAATCTGGCCCCTTCTTTCGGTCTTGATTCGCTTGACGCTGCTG: 3250 a.u.
AAAGCGGTAATTTTTCACGTGGAGTCAAATATCTATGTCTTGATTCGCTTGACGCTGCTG: 13400 a.u.
TGCGCAACAACTTGAATAGTGGGTGTATGTCTAGAAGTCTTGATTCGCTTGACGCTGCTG: 4460 a.u.
AGGCCCTAGGGGCCGTGCGTGGAGTAAAAAGGTTTGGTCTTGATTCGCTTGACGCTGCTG: 8180 a.u.
CGGGGTTAAGTTTGTAGGGTGGGTGGCTTGCAGCAGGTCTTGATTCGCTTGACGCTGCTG: 5360 a.u.
CTTCTGTAAATTTTTCACGTGCATTGACGCGCCCCGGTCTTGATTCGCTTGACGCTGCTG: 12000 a.u.
CATACCCAACCTTTTCACGTGGGGTAAGATATTTGTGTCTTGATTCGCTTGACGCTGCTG: 16700 a.u.
AGTTATCTAAGATTCGTCGTGCTTTAAGAGACTTGTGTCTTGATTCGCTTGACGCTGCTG: 5490 a.u.
CATACCCAACCTTGAACTGTGGGTGAAGATATTTGTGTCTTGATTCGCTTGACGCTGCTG: 4100 a.u.
CAAGTTTGTTTGCTTTTCGTGCAAAATATTAAATAGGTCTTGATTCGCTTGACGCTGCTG: 4880 a.u.

Block 3
Target: Hepatocyte nuclear factor 3-beta, forkhead domain (FOXA2, Homo sapiens, UniProt Q9Y261, residues 142-269)
Technique: protein-binding microarray
Molecule type: hairpin DNA
Sample: in vitro
Tested at: not given
Setting: whole hairpin DNA, median over replicate spots
Relative to: not given
Direction: higher = stronger binding
Measurement: median fluorescence
Residues (chain): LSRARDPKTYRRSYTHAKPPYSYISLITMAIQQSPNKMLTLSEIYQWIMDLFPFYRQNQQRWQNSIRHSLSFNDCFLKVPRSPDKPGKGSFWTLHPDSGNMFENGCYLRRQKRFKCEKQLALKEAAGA
GAGGCCATGCAAACGACGCCTCCTGGCGTCGTTTGCATGGCCTCACACTC (5mC at 14 30): 3680 a.u.
GAGGCCATGCACGCAACGCCTCCTGGCGTTGCGTGCATGGCCTCACACTC (5mC at 32): 3620 a.u.
GAGGCCATCTAACCAACGCCTCCTGGCGTTGGTTAGATGGCCTCACACTC (5mC at 9): 2890 a.u.
GAGGCCATCGAACCAACGCCTCCTGGCGTTGGTTCGATGGCCTCACACTC: 3170 a.u.
GAGGCCATGTAACGAACGCCTCCTGGCGTTCGTTACATGGCCTCACACTC: 3180 a.u.
GAGGCCATGCAAACAAGGCCTCCTGGCCTTGTTTGCATGGCCTCACACTC: 3330 a.u.
GAGGCCCTGTAACCAACGCCTCCTGGCGTTGGTTACAGGGCCTCACACTC: 3050 a.u.
GAGGCCATGTACACAACGCCTCCTGGCGTTGTGTACATGGCCTCACACTC (5mC at 12): 3710 a.u.
GAGGCCACGTAACCAACGCCTCCTGGCGTTGGTTACGTGGCCTCACACTC (5mC at 8): 3340 a.u.
GAGGCCCGGTAAACAACGCCTCCTGGCGTTGTTTACCGGGCCTCACACTC (5mC at 7): 3940 a.u.
GAGGCCATGTAAACGACGCCTCCTGGCGTCGTTTACATGGCCTCACACTC (5mC at 14 30): 3760 a.u.
GAGGCCATGTAAACCACGCCTCCTGGCGTGGTTTACATGGCCTCACACTC (5mC at 15): 3200 a.u.
GAGGCCATGTAACGAACGCCTCCTGGCGTTCGTTACATGGCCTCACACTC (5mC at 13 31): 3180 a.u.
GAGGCCATCGAACCAACGCCTCCTGGCGTTGGTTCGATGGCCTCACACTC (5mC at 35): 3310 a.u.
GAGGCCGTGCAAACAACGCCTCCTGGCGTTGTTTGCACGGCCTCACACTC: 4100 a.u.
GAGGCCATGTGAACAACGCCTCCTGGCGTTGTTCACATGGCCTCACACTC (5mC at 34): 3210 a.u.
GAGGCCACGCAAACAACGCCTCCTGGCGTTGTTTGCGTGGCCTCACACTC (5mC at 8 36): 3830 a.u.
GAGGCCAGGTAAACAACGCCTCCTGGCGTTGTTTACCTGGCCTCACACTC: 4220 a.u.
GAGGCCATGTAGACAACGCCTCCTGGCGTTGTCTACATGGCCTCACACTC (5mC at 33): 3100 a.u.
GAGGCCATGCCGACAACGCCTCCTGGCGTTGTCGGCATGGCCTCACACTC (5mC at 11): 3120 a.u.
GAGGCCCGGTAACCAACGCCTCCTGGCGTTGGTTACCGGGCCTCACACTC: 3430 a.u.
GAGGCCATGTAATCAACGCCTCCTGGCGTTGATTACATGGCCTCACACTC: 3150 a.u.
GAGGCCATGCTAACAACGCCTCCTGGCGTTGTTAGCATGGCCTCACACTC: 3190 a.u.
GAGGCCATGTAAAGAACGCCTCCTGGCGTTCTTTACATGGCCTCACACTC (5mC at 31): 3000 a.u.
GAGGCCATGCAGACAACGCCTCCTGGCGTTGTCTGCATGGCCTCACACTC (5mC at 33): 3430 a.u.

Block 4
Target: RNA binding protein fox-1 homolog 2, RRM domain, GST-SBP tag (RBFOX2, Homo sapiens, UniProt O43251-10, residues 100-194)
Technique: RNA Bind-n-Seq
Molecule type: RNA
Sample: in vitro
Tested at: 365 nM
Setting: natural RNA segment, single round, ends assumed
Relative to: no-protein control
Direction: higher = stronger binding
Measurement: RBNS enrichment (R)
Target sequence (chain): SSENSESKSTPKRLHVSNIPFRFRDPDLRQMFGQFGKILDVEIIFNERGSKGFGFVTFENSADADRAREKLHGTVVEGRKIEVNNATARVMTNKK
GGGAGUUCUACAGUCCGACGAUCUGUUGCCCAGCUCUGUAGACAUCCCUGCUCCCCAGCUGCCCAAAGACCCCCUCCCCAUUGAUGCCACCUCAAGGAAAGGGGGCAUGUUGCCAGCUGGUUCCCGCUAGGGAUGGAAUUCUCGGGUGCCAA: 0.424
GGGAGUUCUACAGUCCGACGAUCCCAAAGCUGGUAGAGCAGCUAUCAUGCCUCAGGCCAUGGACAUUUGAAUGGGAGCCUCAGGCAUGAUGUGCAGAAAUAGCCUUCUACACCAGGCAGGGACAGGUUGCCUGUGGAAUUCUCGGGUGCCAA: 0.935
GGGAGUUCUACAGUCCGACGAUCCAUUGUUCUAUGUCUUUGUUGGCUGGUGUAUUUUAUAAACUAAAGCUGCCUAUGUUUCUUUUUAAAGCUCGCAUUCCCAGAAUCAGCUUAGGCUUCUAUGAAUUCAGCCUUGGAAUUCUCGGGUGCCAA: 0.659
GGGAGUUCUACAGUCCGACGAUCGUGGAUAUUGGAGUUGGGUUGAUUUUCCUGAAUUGGUUCCUAUAGGAUCCUCCAAUUUUGGAUCUUCUACAGAUCCCCCAGUGUUCUAGUUUAGUAAACUGGCCCAUUUGUGGAAUUCUCGGGUGCCAA: 0.271
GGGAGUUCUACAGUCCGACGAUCAAGGACUCGCAGGGGCAGUCGCAGCUGAUGUUUGAGUGCCCUGGGAUGGGAGUCAGACUGGCUGAGGUUUCAAUUUUGCAUUCAUGGCCAGCCACCGUUCCAGGUCCUGUUGGAAUUCUCGGGUGCCAA: 0.488
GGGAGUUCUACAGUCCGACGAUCUAUUUAUUUGGUUAUUCAAAAUACAUAUCAGAGUUUGGGUUUCCAGUCUUAGUUGCAUUUGUUGUUUAUUUGUUGGGCUCACCCAACUCUUGACACCAUAGCAGAGCAUCUGGAAUUCUCGGGUGCCAA: 0.455
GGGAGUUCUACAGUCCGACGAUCAGAUUUACCUUUUCUGUUGUACGUAAAGCUUAAAUUGCUUUUGUUGUGACUUUUUAGCCAGUGACUUUUUCUGAGCUUUUCAUGGAAGUGGCAGUGAAAAAUAUGUUGAGUGGAAUUCUCGGGUGCCAA: 0.398
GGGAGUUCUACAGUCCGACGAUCACCACCACCCCUCCCUGGCCAUCCUCCUGGAAUGUGGUCUGCCCUCCACCAGAGCUCCUGCCUGCCAGGACUGGACCAGAGCAGCCAGGCUGGGGCCCCUCUGUCUCAACUGGAAUUCUCGGGUGCCAA: 0.669
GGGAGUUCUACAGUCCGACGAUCAGGAUGCCCUAGUCCUUGAUGGGGCAGGGUAGGACCUCUGGGGCAGAUGGCCUCCCUGCUCUUCUGGCCCCCAUGUCAUAGUUAAAACUGACAAGGAUUUGAAAAAGACUUGGAAUUCUCGGGUGCCAA: 0.277

Some of these lines once more (block 3):
GAGGCCATGTAACGAACGCCTCCTGGCGTTCGTTACATGGCCTCACACTC: 3180 a.u.
GAGGCCATGTGAACAACGCCTCCTGGCGTTGTTCACATGGCCTCACACTC (5mC at 34): 3210 a.u.
GAGGCCCGGTAAACAACGCCTCCTGGCGTTGTTTACCGGGCCTCACACTC (5mC at 7): 3940 a.u.
GAGGCCATGTAACGAACGCCTCCTGGCGTTCGTTACATGGCCTCACACTC (5mC at 13 31): 3180 a.u.
GAGGCCATGCAAACAAGGCCTCCTGGCCTTGTTTGCATGGCCTCACACTC: 3330 a.u.
GAGGCCATGCTAACAACGCCTCCTGGCGTTGTTAGCATGGCCTCACACTC: 3190 a.u.
GAGGCCATGTAAACGACGCCTCCTGGCGTCGTTTACATGGCCTCACACTC (5mC at 14 30): 3760 a.u.
GAGGCCATCGAACCAACGCCTCCTGGCGTTGGTTCGATGGCCTCACACTC: 3170 a.u.
